Results from different studies.
Each line is one published result; not all experiments were run side by side. Several values in a cell are separate wells, animals, samples, runs or records. Numbers after ± are the reported error.

The recovery of CN/C(=N\[N+](=O)[O-])NCc1cnc(Cl)s1 is reported as 51.5% (soil; 56 days, nominal 3.3).
The cytotoxicity efficacy of CCN(CC)CCNC(=O)c1ccc(-c2nc(CN3CCc4ccccc43)c(C)o2)cc1 is reported as 0% (Vero-E6; CellTiter-Glo ATP; concentration not given, 72 h, second round 5-point; baseline: DMSO 0%, hyamine -100%, more negative, more toxic).
CCCC(C(=O)c1ccc(O)c(OC)c1)N1CCCC1 (stereo not shown) has a brain-to-plasma ratio of 0.1 (rat; subcutaneous, 2 mg/kg MDPV, 240 min).
OCc1ncc2n1-c1ccc(Cl)cc1C(c1ccccc1F)=NC2 gave an AUC(0-t) of 39 ng·h/mL (human, plasma; 7.5 mg midazolam, day 12, geometric mean, added: amenamevir 400 mg).
CCC(CC)COC(=O)[C@H](C)N[P@](=O)(OC[C@H]1O[C@@](C#N)(c2ccc3c(N)ncnn23)[C@H](O)[C@@H]1O)Oc1ccccc1: “participants with nausea” 0% (human; intravenous, 100 mg).
For Cc1ncc(OC[C@@]2(c3cccc(F)c3)C[C@H]2C(=O)Nc2ccc(F)cn2)c(C)n1, “absorption lag time” read 0.401 h (population PK base model; human, plasma; oral).
With Cc1ncc2n1-c1ccc(Cl)cc1C(c1ccccc1F)=NC2 the half-life was 31.1 ± 12.6 min (wild-type mice, plasma; intravenous, 0.3 mg/kg, added: 3-day PCN 10 mg/kg).
With COc1ccccc1-c1cccc(CN2CCCC(C(=O)NCc3ccc(F)cc3)C2)c1 (stereo not shown) the cytotoxicity efficacy was -18.7% (Vero-E6; CellTiter-Glo ATP; concentration not given, 72 h, first round 5-point; baseline: DMSO 0%, hyamine -100%, more negative, more toxic).
The brain-to-plasma ratio of CCCC(C(=O)c1ccc2c(c1)OCO2)N1CCCC1.Cl (racemic) is reported as 9.5 and ~10 (rat; subcutaneous, 1 mg/kg, 40 min).
Under “absorption rate constant ka”, CCN(CC)C(=O)[C@@H]1C=C2c3cccc4[nH]cc(c34)C[C@H]2N(C)C1 is recorded as 1.2 h⁻¹ (compartmental pharmacokinetic model; human; dose not given, added: placebo).
C#Cc1ccc2c(c1)C(c1ccccn1)=NCc1c(-c3cnco3)ncn1-2 — result for “metabolite peak area share”: about 99% (human hepatocytes; 2 µM, 4 h, 37 °C).
O=C1c2c(O)c(=O)ccn2N([C@@H]2c3ccccc3SCc3c2ccc(F)c3F)[C@@H]2COCCN12 has a trough concentration of 1.81 ng/mL (BALB/c mouse; subcutaneous, 2 mg/kg q24h).
For CCCC(C(=O)c1ccc(O)c(O)c1)N1CCCC1 (stereo not shown), the brain-to-plasma ratio was 0.2 ± 0.1 (rat; subcutaneous, 4 mg/kg MDPV, 240 min).

A few entries again:
For CCCC(C(=O)c1ccc(O)c(O)c1)N1CCCC1 (stereo not shown), the brain-to-plasma ratio was 0.2 ± 0.1 (rat; subcutaneous, 4 mg/kg MDPV, 240 min).
